# Results pooled from the literature.
# A part holds a random share of what one study measured. “And” joins repeats or separate records; there may be more than shown.

# Study 1
# Target: Cyclin-dependent kinase 2, with cyclin A (CDK2, Homo sapiens, UniProt P24941)
# Effect on: cell-free assay
# Tested at: 0.5 µM
Compound,remaining signal [%]
O=C1Cc2c([nH]c3ccc(Br)cc23)-c2ccccc2N1,37.4
COc1cc2c(Nc3ccc(Br)cc3F)ncnc2cc1OCC1CCN(C)CC1,94.6
Cc1ccc(NC2=CC(=O)c3sc(C)nc3C2=O)cc1,88.1

# Study 2
# Organism: Sarcocystis neurona
# Effect on: parasite activity
# Tested at: 10 µM
# Time: 96 h
Structure (SMILES),activity class
CCCN1CCCC[C@H]1C(=O)Nc1c(C)cccc1C,inactive
Cc1c(O)c(=O)ccn1C,inactive
CN1CCCC(n2nc(Cc3ccc(Cl)cc3)c3ccccc3c2=O)CC1 (stereo not shown),active
O=c1[nH]c(=O)n(C2CCCO2)cc1F (stereo not shown),inactive
COc1ccccc1OCCNCC(O)COc1cccc2[nH]c3ccccc3c12 (stereo not shown),inactive
CCOC(=O)[C@@]1(CCCCCCOc2ccc(Cl)cc2)CO1,inactive

# Study 3
# Cell line: mouse MPNST tumor cells
# Method: high-content nuclear imaging
# Measured: cell number
# Tested at: 10 µM
# Time: 12 h
# Notes: mean of 2 replicates
# Baseline: plate mean
# Reading: higher = more cells
SMILES,nuclei count
O=C(Nc1ccc(F)cc1)N1CCc2ccccc2C1c1ccc(C(F)(F)F)cc1 (stereo not shown),1.4 z-score
N=C(N)NCCN1CCCCCCC1,0.918 z-score
O=c1oc2c(C3OCCCO3)c(O)ccc2c2c1CNCC2,1.52 z-score
NCCc1ccc(O)c(O)c1,0.873 z-score and 5.69 z-score
COCC[n+]1c2c(n(Cc3cnccn3)c1C)C(=O)c1ccccc1C2=O,-3.99 z-score

# Study 4
# Compound: CC(C)(C)c1cnc(CSc2cnc(NC(=O)C3CCN(CCCCCSc4cccc5c4CN(C4CCC(=O)NC4=O)C5=O)CC3)s2)o1 (stereo not shown)
cell line,test,conditions,how to read,viability
HuT78,trypan blue exclusion,"250 nM, 48 h",baseline: untreated control,10.3% and 13.4%
HuT78,trypan blue exclusion,"10 nM, 48 h",baseline: untreated control,96% and 94.7%
HuT78,"cell growth or viability, trypan blue","1 nM, 48 h",,99.2%
HuT78,trypan blue exclusion,"1 nM, 48 h",baseline: untreated control,100%
HH,CCK-8,10 nM,,103% and 95.8%
HH,CCK-8,250 nM,,0%
HuT78,"cell growth or viability, trypan blue","10 nM, 48 h",,98.4%

# Study 5
# SMILES: O=C1NC(c2ccccn2)Sc2ccccc21 (stereo not shown)
# Method: competition with immobilised ligand
# Tested at: 1 µM
target,test,remaining binding [%]
"Phosphatidylinositol 4,5-bisphosphate 3-kinase catalytic subunit alpha isoform (PIK3CA, Homo sapiens, UniProt P42336, M1043I)",cell-free assay,74
"Platelet-derived growth factor receptor alpha (PDGFRA, Homo sapiens, UniProt P16234)",cell-free assay,76
"Tyrosine-protein kinase ABL1, non-phosphorylated (ABL1, Homo sapiens, UniProt P00519, F317I)",binding,90
"Leucine-rich repeat serine/threonine-protein kinase 2 (LRRK2, Homo sapiens, UniProt Q5S007)",cell-free assay,93
"Serine/threonine-protein kinase 17A (STK17A, Homo sapiens, UniProt Q9UEE5)",cell-free assay,86
"Tyrosine-protein kinase FRK (FRK, Homo sapiens, UniProt P42685)",cell-free assay,100
"Dual specificity tyrosine-phosphorylation-regulated kinase 2 (DYRK2, Homo sapiens, UniProt Q92630)",cell-free assay,99
"Tyrosine-protein kinase ABL1, phosphorylated (ABL1, Homo sapiens, UniProt P00519, H396P)",cell-free assay,84
"Serine/threonine-protein kinase MARK1 (MARK1, Homo sapiens, UniProt Q9P0L2)",cell-free assay,99
"Atypical kinase COQ8A, mitochondrial (COQ8A, Homo sapiens, UniProt Q8NI60)",cell-free assay,98
"5'-AMP-activated protein kinase catalytic subunit alpha-1 (PRKAA1, Homo sapiens, UniProt Q13131)",cell-free assay,100
"Serine/threonine-protein kinase Chk2 (CHEK2, Homo sapiens, UniProt O96017)",cell-free assay,100
"Cyclin-dependent kinase-like 3 (CDKL3, Homo sapiens, UniProt Q8IVW4)",cell-free assay,88
"Serine/threonine-protein kinase BRSK2 (BRSK2, Homo sapiens, UniProt Q8IWQ3)",cell-free assay,100
"ALK tyrosine kinase receptor (ALK, Homo sapiens, UniProt Q9UM73, L1196M)",cell-free assay,97
"Serine/threonine-protein kinase ULK1 (ULK1, Homo sapiens, UniProt O75385)",cell-free assay,100
"Cyclin-dependent kinase 18 (CDK18, Homo sapiens, UniProt Q07002)",cell-free assay,93
"Mitogen-activated protein kinase kinase kinase 20 (MAP3K20, Homo sapiens, UniProt Q9NYL2)",cell-free assay,100
"Dual specificity testis-specific protein kinase 1 (TESK1, Homo sapiens, UniProt Q15569)",cell-free assay,100
"eIF-2-alpha kinase GCN2, C-terminal kinase domain (EIF2AK4, Homo sapiens, UniProt Q9P2K8, S808G)",cell-free assay,42
"Mast/stem cell growth factor receptor Kit, autoinhibited (KIT, Homo sapiens, UniProt P10721)",cell-free assay,88
"Muscle, skeletal receptor tyrosine-protein kinase (MUSK, Homo sapiens, UniProt O15146)",cell-free assay,90
"Phosphatidylinositol 4-phosphate 5-kinase type-1 gamma (PIP5K1C, Homo sapiens, UniProt O60331)",cell-free assay,77
"Mitogen-activated protein kinase 1 (MAPK1, Homo sapiens, UniProt P28482)",cell-free assay,89
"Transient receptor potential cation channel subfamily M member 6 (TRPM6, Homo sapiens, UniProt Q9BX84)",cell-free assay,64

# Study 6
# Species: human
# Medium: microsomes or S9
# Tested at: 2 µM
# Time: 0.5 h
SMILES,remaining compound
O=C(c1c(F)cccc1F)N(Cc1n[nH]c(=O)[nH]1)c1ccccc1,70.7%
Brc1ccc(OCCn2cc(/C=N/n3cnnc3)c3ccccc32)cc1,64.5%
Nc1c(Br)cc(Br)cc1C(=O)NC1CCCCC1,35.9%
CCCc1cc(C(=O)N(C)CC2Cc3ccccc3CN2C)[nH]n1 (stereo not shown),49.9%
COc1cc2c(Br)c(O)c(Br)cc2cc1Cc1ccccc1,53.9%
O=C(c1ccc(Cl)s1)N1CCCn2nc(-c3ccncc3)cc2C1,68.3%

# Repeated from above (study 5):
target,test,remaining binding [%]
"eIF-2-alpha kinase GCN2, C-terminal kinase domain (EIF2AK4, Homo sapiens, UniProt Q9P2K8, S808G)",cell-free assay,42
"Mast/stem cell growth factor receptor Kit, autoinhibited (KIT, Homo sapiens, UniProt P10721)",cell-free assay,88
"Muscle, skeletal receptor tyrosine-protein kinase (MUSK, Homo sapiens, UniProt O15146)",cell-free assay,90
